{"data": "Measured values from different studies", "note": "Every numbered part comes from another study and shows a few of its results, in no order.", "chain of UniProt Q13163 (whole entry, looked up)": "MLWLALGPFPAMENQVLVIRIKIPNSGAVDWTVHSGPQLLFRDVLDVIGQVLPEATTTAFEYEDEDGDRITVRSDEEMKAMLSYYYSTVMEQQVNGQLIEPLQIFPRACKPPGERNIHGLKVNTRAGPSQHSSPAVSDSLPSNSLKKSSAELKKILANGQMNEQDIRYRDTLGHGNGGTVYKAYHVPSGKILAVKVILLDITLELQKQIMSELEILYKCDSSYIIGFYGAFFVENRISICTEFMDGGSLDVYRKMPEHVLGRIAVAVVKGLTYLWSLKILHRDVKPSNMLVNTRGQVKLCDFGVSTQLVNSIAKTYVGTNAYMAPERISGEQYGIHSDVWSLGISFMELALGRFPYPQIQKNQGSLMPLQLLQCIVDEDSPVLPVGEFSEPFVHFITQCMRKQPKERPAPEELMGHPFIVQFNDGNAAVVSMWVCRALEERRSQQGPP", "chain of UniProt P04629 (whole entry, looked up)": "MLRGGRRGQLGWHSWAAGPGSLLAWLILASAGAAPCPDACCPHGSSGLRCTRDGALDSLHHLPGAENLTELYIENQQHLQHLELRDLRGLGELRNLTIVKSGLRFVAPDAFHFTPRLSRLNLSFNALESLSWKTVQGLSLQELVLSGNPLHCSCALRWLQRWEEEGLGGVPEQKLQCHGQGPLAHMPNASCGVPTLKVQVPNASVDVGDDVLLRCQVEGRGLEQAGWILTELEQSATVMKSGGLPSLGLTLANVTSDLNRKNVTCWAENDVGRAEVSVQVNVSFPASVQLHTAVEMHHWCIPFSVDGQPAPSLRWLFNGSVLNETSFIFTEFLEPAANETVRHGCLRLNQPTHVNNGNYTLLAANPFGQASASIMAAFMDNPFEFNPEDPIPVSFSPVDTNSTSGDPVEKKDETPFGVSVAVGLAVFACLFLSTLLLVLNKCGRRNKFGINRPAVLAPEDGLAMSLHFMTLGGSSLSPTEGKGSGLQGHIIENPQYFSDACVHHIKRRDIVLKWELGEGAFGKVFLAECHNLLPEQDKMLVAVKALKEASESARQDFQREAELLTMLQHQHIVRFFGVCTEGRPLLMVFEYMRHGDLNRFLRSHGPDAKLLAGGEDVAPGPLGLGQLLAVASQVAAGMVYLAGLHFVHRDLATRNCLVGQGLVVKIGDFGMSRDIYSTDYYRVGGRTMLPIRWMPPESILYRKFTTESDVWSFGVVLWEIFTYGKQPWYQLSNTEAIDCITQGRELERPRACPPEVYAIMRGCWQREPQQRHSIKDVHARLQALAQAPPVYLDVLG", "chain of UniProt O15530 (whole entry, looked up)": "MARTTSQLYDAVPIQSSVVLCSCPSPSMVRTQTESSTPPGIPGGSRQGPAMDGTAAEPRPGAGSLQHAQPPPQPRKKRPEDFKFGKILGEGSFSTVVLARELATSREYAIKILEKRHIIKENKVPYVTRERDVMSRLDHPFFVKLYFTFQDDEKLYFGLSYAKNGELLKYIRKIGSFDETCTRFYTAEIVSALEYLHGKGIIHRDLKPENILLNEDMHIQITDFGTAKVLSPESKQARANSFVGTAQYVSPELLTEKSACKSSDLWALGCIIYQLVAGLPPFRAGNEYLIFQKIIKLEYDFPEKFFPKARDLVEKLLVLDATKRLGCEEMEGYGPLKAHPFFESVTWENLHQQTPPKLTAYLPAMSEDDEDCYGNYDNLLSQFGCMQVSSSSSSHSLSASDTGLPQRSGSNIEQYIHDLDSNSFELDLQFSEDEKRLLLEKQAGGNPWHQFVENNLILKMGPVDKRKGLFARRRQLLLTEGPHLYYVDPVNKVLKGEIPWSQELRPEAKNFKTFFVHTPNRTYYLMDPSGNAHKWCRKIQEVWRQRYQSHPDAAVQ", "chain of UniProt Q8TD19 (whole entry, looked up)": "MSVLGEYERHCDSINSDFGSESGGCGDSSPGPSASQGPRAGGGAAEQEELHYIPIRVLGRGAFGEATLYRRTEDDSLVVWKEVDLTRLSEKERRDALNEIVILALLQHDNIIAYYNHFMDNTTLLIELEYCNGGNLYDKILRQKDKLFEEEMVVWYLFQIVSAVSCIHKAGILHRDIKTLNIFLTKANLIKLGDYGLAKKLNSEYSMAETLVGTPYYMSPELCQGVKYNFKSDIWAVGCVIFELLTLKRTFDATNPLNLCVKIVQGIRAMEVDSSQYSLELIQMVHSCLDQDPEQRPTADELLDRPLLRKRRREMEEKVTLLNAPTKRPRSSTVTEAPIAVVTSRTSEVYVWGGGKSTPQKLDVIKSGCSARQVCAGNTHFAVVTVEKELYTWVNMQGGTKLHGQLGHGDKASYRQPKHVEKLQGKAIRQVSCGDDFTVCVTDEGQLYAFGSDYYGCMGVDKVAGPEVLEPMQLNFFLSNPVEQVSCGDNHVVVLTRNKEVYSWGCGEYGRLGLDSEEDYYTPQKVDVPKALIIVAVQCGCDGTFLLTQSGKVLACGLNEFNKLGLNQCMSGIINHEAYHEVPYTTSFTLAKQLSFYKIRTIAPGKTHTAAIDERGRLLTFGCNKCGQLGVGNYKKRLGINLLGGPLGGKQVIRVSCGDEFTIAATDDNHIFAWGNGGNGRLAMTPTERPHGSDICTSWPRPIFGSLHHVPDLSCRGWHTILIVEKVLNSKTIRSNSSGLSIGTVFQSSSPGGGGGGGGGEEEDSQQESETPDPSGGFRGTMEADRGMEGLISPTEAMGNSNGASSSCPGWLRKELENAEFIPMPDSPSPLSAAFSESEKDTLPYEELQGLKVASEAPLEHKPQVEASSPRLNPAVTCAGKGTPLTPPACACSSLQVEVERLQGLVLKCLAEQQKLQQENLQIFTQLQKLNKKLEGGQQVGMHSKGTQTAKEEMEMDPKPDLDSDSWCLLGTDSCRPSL", "chain of UniProt Q15418 (whole entry, looked up)": "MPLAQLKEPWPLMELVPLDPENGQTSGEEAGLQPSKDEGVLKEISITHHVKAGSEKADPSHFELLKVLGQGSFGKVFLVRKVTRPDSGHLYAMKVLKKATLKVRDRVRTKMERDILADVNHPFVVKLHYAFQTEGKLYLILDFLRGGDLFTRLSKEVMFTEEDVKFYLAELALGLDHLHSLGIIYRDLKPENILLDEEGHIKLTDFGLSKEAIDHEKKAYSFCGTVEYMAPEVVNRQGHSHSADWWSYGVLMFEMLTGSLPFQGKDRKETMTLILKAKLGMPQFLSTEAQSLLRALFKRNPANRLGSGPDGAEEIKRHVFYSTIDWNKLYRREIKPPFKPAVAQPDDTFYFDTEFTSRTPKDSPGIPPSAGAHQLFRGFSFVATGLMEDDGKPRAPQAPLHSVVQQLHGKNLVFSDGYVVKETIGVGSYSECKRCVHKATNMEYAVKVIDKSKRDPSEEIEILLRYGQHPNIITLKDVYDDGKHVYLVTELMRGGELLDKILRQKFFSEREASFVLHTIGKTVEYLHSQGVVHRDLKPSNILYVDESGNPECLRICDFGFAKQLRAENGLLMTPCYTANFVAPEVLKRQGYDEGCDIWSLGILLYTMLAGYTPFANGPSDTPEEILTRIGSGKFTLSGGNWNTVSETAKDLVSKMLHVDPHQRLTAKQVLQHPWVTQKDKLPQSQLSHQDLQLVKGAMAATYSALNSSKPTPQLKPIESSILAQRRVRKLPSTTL"}
{"data": "Sample 1", "cell line": "Huh-7", "concentration": "10 µM", "time": "24 h"}
{"SMILES": "CCN(CC)CCNc1ccc(CO)c2sc3ccccc3c(=O)c12", "viability": "71.9%"}
{"SMILES": "S=P(N1CC1)(N1CC1)N1CC1", "viability": "64.5%"}
{"SMILES": "CCN(CCO)CCCC(C)Nc1ccnc2cc(Cl)ccc12 (stereo not drawn)", "viability": "96.3%"}
{"SMILES": "Nc1ccn([C@@H]2O[C@H](CO)[C@@H](O)[C@@H]2O)c(=O)n1", "viability": "50.4%"}
{"SMILES": "CCn1nc(C(=O)O)c(=O)c2cc3c(cc21)OCO3", "viability": "103%"}
{"SMILES": "c1ccc2c(c1)CCCC2C1=NCCN1 (stereo not drawn)", "viability": "99.9%"}
{"SMILES": "CN(Cc1cnc2nc(N)nc(N)c2n1)c1ccc(C(=O)NC(CCC(=O)O)C(=O)O)cc1 (racemic)", "viability": "53.2%"}
{"SMILES": "Nc1c2c(nc3ccccc13)CCCC2", "viability": "93%"}
{"SMILES": "CCn1cc(C(=O)O)c(=O)c2cc3c(cc21)OCO3", "viability": "95.2%"}
{"data": "Sample 2", "target": "Serine/threonine-protein kinase ULK1 (ULK1, Homo sapiens, UniProt O75385)", "observed": "enzyme activity", "mode": "inhibitor", "concentration": "0.5 µM", "relative to": "control", "chain of UniProt O75385 (whole entry, looked up)": "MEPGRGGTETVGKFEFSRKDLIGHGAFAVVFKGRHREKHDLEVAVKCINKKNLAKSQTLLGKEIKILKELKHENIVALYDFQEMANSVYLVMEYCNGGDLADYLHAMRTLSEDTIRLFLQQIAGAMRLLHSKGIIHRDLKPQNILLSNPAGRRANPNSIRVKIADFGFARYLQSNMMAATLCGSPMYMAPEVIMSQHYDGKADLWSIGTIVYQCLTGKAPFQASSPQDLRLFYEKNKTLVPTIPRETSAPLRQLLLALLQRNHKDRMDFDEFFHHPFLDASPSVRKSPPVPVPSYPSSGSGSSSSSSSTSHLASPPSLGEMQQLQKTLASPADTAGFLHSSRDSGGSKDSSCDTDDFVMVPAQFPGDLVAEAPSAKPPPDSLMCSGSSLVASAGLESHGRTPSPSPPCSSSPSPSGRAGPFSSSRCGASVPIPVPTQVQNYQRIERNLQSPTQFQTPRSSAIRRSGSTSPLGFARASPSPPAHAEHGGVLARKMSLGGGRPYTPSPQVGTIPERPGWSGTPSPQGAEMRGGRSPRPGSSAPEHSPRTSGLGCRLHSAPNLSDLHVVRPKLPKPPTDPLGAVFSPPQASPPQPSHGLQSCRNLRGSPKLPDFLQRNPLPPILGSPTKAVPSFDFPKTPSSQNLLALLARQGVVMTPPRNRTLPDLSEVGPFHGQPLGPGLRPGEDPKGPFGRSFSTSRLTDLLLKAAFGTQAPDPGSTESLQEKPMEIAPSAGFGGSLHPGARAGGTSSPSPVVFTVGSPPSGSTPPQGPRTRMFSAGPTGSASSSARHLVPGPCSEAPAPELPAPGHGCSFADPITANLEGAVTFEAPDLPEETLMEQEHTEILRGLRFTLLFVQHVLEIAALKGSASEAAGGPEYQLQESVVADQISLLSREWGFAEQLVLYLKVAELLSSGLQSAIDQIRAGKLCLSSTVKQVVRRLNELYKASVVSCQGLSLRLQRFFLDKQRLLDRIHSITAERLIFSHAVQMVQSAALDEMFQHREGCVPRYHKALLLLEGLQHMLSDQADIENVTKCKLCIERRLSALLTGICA"}
{"Structure (SMILES)": "Cc1cn(-c2cc(NC(=O)c3ccc(C)c(Nc4nccc(-c5cccnc5)n4)c3)cc(C(F)(F)F)c2)cn1", "remaining activity [%]": 101}
{"Structure (SMILES)": "O=C1c2ccccc2-c2n[nH]c3cccc1c23", "remaining activity [%]": 62.2}
{"Structure (SMILES)": "CCN(CC)CCNC(=O)c1c(C)[nH]c(/C=C2\\C(=O)Nc3ccc(F)cc32)c1C", "remaining activity [%]": 16.3}
{"Structure (SMILES)": "Nc1cccc(-c2cc3c(Oc4cccc(O)c4)ncnc3[nH]2)c1", "remaining activity [%]": 143}
{"Structure (SMILES)": "CCN(CC)C(=O)c1ccc(Nc2nc(OCC3CCCCC3)c3[nH]cnc3n2)cc1", "remaining activity [%]": 77.7}
{"Structure (SMILES)": "O=C(Nc1cccc(Nc2nccc(Nc3cccc(C(F)(F)F)c3)n2)c1)C1CC1", "remaining activity [%]": 105}
{"Structure (SMILES)": "COc1cc2ncnc(Nc3cccc(Cl)c3)c2cc1OC", "remaining activity [%]": 84.7}
{"Structure (SMILES)": "CCOc1nc(NC(=O)Cc2cc(OC)ccc2OC)cc(N)c1C#N", "remaining activity [%]": 103}
{"Structure (SMILES)": "Cc1cc2ncc(-c3ccccc3)nc2cc1C", "remaining activity [%]": 84.1}
{"Structure (SMILES)": "CN(C)C[C@H]1CCn2c(c(C3=C(c4cn(C)c5ccccc45)C(=O)NC3=O)c3ccccc32)C1", "remaining activity [%]": 98.9}
{"Structure (SMILES)": "O=c1cc(-c2cccc3c2Sc2ccccc2S3)oc(N2CCOCC2)c1", "remaining activity [%]": 91.9}
{"Structure (SMILES)": "CCN(CC)CCNC(=O)c1c(C)[nH]c(/C=C2\\C(=O)Nc3ccc(Cl)cc32)c1C", "remaining activity [%]": 13.6}
{"Structure (SMILES)": "c1ccc(-c2[nH]ncc2-c2ccnc3ccccc23)nc1", "remaining activity [%]": 85.9}
{"Structure (SMILES)": "C[C@@H]1CCN(C(=O)CC#N)C[C@@H]1N(C)c1ncnc2[nH]ccc12", "remaining activity [%]": 83}
{"Structure (SMILES)": "Ic1cccc(CSc2nnc(-c3ccncc3)o2)c1", "remaining activity [%]": 97.1}
{"Structure (SMILES)": "c1ccc(-c2cnc(Nc3ccc(OCCN4CCCC4)cc3)s2)cc1", "remaining activity [%]": 127}
{"Structure (SMILES)": "Cn1nc2c3c(cccc31)C(=O)c1ccccc1-2", "remaining activity [%]": 101}
{"Structure (SMILES)": "COc1cc2c(cc1OC)-c1[nH]nc(Nc3cccc(F)c3)c1C2", "remaining activity [%]": 103}
{"Structure (SMILES)": "CN([C@@H](Cc1ccc(OS(=O)(=O)c2cccc3cnccc23)cc1)C(=O)N1CCN(c2ccccc2)CC1)S(=O)(=O)c1cccc2cnccc12", "remaining activity [%]": 101}
{"Structure (SMILES)": "N#C/C(=C\\c1ccc(O)c(O)c1)C(=O)NCc1ccccc1", "remaining activity [%]": 92.9}
{"Structure (SMILES)": "N#Cc1c(NC(=O)c2cccc3ccccc23)sc2c1CCCC2", "remaining activity [%]": 99.8}
{"Structure (SMILES)": "O=C1C(Cl)=C(N2C(=O)CCC2=O)C(=O)c2ccccc21", "remaining activity [%]": 107}
{"Structure (SMILES)": "Cc1nc2cc3nc(-c4cccs4)cnc3cc2n1C", "remaining activity [%]": 84.6}
{"Structure (SMILES)": "O=C(NC(NC(=S)Nc1ccc(F)c([N+](=O)[O-])c1)C(Cl)(Cl)Cl)C(c1ccccc1)c1ccccc1 (stereo not drawn)", "remaining activity [%]": 99.1}
{"data": "Sample 3", "Structure (SMILES)": "FC(F)(F)c1ccc2c(c1)nc(-c1cccnc1)n2C1CC1", "technique": "competition with immobilised ligand", "concentration": "1 µM"}
{"target": "PRKD1 (Homo sapiens, UniProt Q15139)", "test": "cell-free assay", "remaining binding [%]": 100}
{"target": "WNK2 (Homo sapiens, UniProt Q9Y3S1)", "test": "cell-free assay", "remaining binding [%]": 100}
{"target": "Ribosomal protein S6 kinase alpha-1, N-terminal kinase domain (RPS6KA1, Homo sapiens, UniProt Q15418)", "test": "cell-free assay", "remaining binding [%]": 100}
{"target": "NEK9 (Homo sapiens, UniProt Q8TD19)", "test": "cell-free assay", "remaining binding [%]": 100}
{"target": "Tyrosine-protein kinase ABL1, phosphorylated (ABL1, Homo sapiens, UniProt P00519, E255K)", "test": "binding", "remaining binding [%]": 100}
{"target": "Tyrosine-protein kinase ABL1, phosphorylated (ABL1, Homo sapiens, UniProt P00519, T315I)", "test": "cell-free assay", "remaining binding [%]": 100}
{"target": "COQ8B (Homo sapiens, UniProt Q96D53)", "test": "cell-free assay", "remaining binding [%]": 100}
{"target": "MTOR (Homo sapiens, UniProt P42345)", "test": "cell-free assay", "remaining binding [%]": 80}
{"target": "NIM1K (Homo sapiens, UniProt Q8IY84)", "test": "cell-free assay", "remaining binding [%]": 100}
{"target": "MAP2K5 (Homo sapiens, UniProt Q13163)", "test": "cell-free assay", "remaining binding [%]": 96}
{"target": "MAP3K9 (Homo sapiens, UniProt P80192)", "test": "cell-free assay", "remaining binding [%]": 100}
{"target": "PAK4 (Homo sapiens, UniProt O96013)", "test": "cell-free assay", "remaining binding [%]": 100}
{"target": "NTRK1 (Homo sapiens, UniProt P04629)", "test": "cell-free assay", "remaining binding [%]": 100}
{"target": "MAPK15 (Homo sapiens, UniProt Q8TD08)", "test": "cell-free assay", "remaining binding [%]": 100}
{"target": "PDPK1 (Homo sapiens, UniProt O15530)", "test": "cell-free assay", "remaining binding [%]": 94}
{"target": "STK25 (Homo sapiens, UniProt O00506)", "test": "cell-free assay", "remaining binding [%]": 99}
{"target": "ULK3 (Homo sapiens, UniProt Q6PHR2)", "test": "cell-free assay", "remaining binding [%]": 100}
{"data": "Sample 4", "target": "Calcium/calmodulin-dependent protein kinase type II subunit alpha (CAMK2A, Homo sapiens, UniProt Q9UQM7)", "observed": "enzyme activity", "mode": "inhibitor", "concentration": "10 µM", "chain of UniProt Q9UQM7 (whole entry, looked up)": "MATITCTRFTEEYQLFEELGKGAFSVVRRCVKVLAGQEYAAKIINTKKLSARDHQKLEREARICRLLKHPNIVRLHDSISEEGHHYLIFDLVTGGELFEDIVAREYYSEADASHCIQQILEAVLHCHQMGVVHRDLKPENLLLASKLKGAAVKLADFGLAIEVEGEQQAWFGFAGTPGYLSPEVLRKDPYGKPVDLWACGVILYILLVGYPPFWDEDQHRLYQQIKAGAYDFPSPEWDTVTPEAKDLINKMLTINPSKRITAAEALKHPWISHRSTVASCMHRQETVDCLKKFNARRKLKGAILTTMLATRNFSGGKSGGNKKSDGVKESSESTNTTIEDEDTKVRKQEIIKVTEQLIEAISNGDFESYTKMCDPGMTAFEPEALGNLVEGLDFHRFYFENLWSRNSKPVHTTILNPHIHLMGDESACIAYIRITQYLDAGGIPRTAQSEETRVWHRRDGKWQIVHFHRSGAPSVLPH"}
{"SMILES": "Cc1c(C)c2c(c(C)c1O)CC[C@@](C)(CCC[C@H](C)CCC[C@H](C)CCCC(C)C)O2", "inhibition [%]": -0.01}
{"SMILES": "CNCCCC1c2ccccc2C=Cc2ccccc21", "inhibition [%]": 3}
{"SMILES": "CCN1CCN(Cc2ccc(Nc3ncc(F)c(-c4cc(F)c5nc(C)n(C(C)C)c5c4)n3)nc2)CC1", "inhibition [%]": 69}
{"SMILES": "C=CCc1ccc(O)c(OC)c1", "inhibition [%]": 5}
{"SMILES": "Nc1ccc(S(=O)(=O)c2ccc(N)cc2)cc1", "inhibition [%]": -10}
{"SMILES": "C[N+](C)(C)CCO", "inhibition [%]": -6}
{"SMILES": "CC(=O)OCC(=O)[C@@]12OC3(CCCC3)O[C@@H]1C[C@H]1[C@@H]3CCC4=CC(=O)C=C[C@]4(C)[C@@]3(F)[C@@H](O)C[C@@]12C", "inhibition [%]": 4}
{"note": "For quick reference, copied from above (sample 1):"}
{"SMILES": "CCN(CC)CCNc1ccc(CO)c2sc3ccccc3c(=O)c12", "viability": "71.9%"}
{"SMILES": "CCN(CCO)CCCC(C)Nc1ccnc2cc(Cl)ccc12 (stereo not drawn)", "viability": "96.3%"}
{"SMILES": "CN(Cc1cnc2nc(N)nc(N)c2n1)c1ccc(C(=O)NC(CCC(=O)O)C(=O)O)cc1 (racemic)", "viability": "53.2%"}
{"SMILES": "Nc1ccn([C@@H]2O[C@H](CO)[C@@H](O)[C@@H]2O)c(=O)n1", "viability": "50.4%"}
{"SMILES": "c1ccc2c(c1)CCCC2C1=NCCN1 (stereo not drawn)", "viability": "99.9%"}
{"SMILES": "Nc1c2c(nc3ccccc13)CCCC2", "viability": "93%"}
{"SMILES": "CCn1cc(C(=O)O)c(=O)c2cc3c(cc21)OCO3", "viability": "95.2%"}
{"SMILES": "S=P(N1CC1)(N1CC1)N1CC1", "viability": "64.5%"}
